# Results from different studies.
# Each numbered part is a random draw from the data of one study; scales do not carry over between parts.

# Study 1
# Target: Signal transducer and activator of transcription 1-alpha/beta, full length (STAT1, Homo sapiens, UniProt P42224, residues 1-750)
# Chain of UniProt P42224 (whole entry, looked up): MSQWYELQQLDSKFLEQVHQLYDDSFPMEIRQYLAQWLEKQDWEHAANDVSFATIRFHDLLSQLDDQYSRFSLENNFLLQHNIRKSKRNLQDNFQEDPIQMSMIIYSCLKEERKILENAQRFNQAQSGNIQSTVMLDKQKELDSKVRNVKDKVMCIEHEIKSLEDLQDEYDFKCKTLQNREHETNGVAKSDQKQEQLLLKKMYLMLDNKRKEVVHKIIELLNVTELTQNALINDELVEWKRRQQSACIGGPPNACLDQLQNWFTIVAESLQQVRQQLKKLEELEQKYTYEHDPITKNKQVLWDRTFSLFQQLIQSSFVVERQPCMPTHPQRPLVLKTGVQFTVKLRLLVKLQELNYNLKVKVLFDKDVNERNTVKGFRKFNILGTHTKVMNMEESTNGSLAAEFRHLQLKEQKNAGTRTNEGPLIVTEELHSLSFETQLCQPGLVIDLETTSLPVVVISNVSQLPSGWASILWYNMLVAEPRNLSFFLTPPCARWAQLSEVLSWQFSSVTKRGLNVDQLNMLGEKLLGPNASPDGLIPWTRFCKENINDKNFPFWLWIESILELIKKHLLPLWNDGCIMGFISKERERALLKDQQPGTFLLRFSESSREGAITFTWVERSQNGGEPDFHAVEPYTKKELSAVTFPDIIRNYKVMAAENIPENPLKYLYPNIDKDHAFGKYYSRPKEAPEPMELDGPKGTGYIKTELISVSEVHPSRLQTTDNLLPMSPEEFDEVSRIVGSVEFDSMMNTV
# Method: protein-binding microarray
# Molecule type: hairpin DNA
# Medium: in vitro
# Concentration: not given
# Notes: whole hairpin DNA, median over replicate spots
# Baseline: not given
# Direction: higher = stronger binding
# Shared flanks, not repeated: GAGGCCT … AGGCCTCACACTCTTTCCCTACACG
Sequence,median fluorescence [a.u.]
TTCGCGGAAGCCTCCTGGCTTCCGCGAA (5mC at 32),1550
TTCCCGGAAGCCTCCTGGCTTCCGGGAA,16100
TTCCCGCGAGCCTCCTGGCTCGCGGGAA (5mC at 28),893
CGCCCGGAAGCCTCCTGGCTTCCGGGCG,964
TTCCCGGAAGCCTCCTGGCTTCCGGGAA (5mC at 12 30),3000
TTCCCGGACGCCTCCTGGCGTCCGGGAA (5mC at 16),1090
TTCCCGGTAGCCTCCTGGCTACCGGGAA,2620
TCGCCGGAAGCCTCCTGGCTTCCGGCGA (5mC at 9),1320
CACCCGGAAGCCTCCTGGCTTCCGGGTG,918
TGCCCGGAAGCCTCCTGGCTTCCGGGCA,2960

# Study 2
# Target: Ras GTPase-activating protein-binding protein 1, RRM domain (G3BP1, Homo sapiens, UniProt Q13283)
# Chain of UniProt Q13283 (whole entry, looked up): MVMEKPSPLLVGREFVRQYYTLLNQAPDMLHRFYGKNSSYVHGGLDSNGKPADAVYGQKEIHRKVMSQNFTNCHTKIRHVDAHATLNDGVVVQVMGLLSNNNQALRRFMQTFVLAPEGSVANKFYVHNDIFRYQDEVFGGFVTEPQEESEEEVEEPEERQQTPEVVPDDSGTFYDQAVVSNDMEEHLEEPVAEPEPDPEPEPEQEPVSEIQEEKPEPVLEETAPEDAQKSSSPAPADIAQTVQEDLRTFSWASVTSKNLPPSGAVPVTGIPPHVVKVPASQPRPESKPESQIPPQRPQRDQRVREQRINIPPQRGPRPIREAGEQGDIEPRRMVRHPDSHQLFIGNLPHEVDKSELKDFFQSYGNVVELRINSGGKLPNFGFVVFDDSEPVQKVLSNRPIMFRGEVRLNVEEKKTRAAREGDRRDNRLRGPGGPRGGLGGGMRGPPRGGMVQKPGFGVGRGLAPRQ
# Method: RNA Bind-n-Seq
# Molecule type: RNA
# Medium: in vitro
# Concentration: 1 µM
# Notes: whole 134-nt RNA, ends assumed
# Together with: 150 mM KCl
# Baseline: input library
# Direction: higher = stronger binding
# Shared flanks, not repeated: GGGAGUUCUACAGUCCGACGAUC … UGGAAUUCUCGGGUGUCAAGG
Sequence,log2 enrichment
AAGUCCUGUGCUACACAUCGUAUGUACCGAAUCGGAAAAGGAAAAGGGAAAAGGGGAAAGUAUUAUGUUACGCCGUUCGGAUCUGCACUU,-0.17
GUCCUGUGCUACACAUCGUAUGUACCGAAUCAAAUUUUUUUAAACCCCCAAACCCAAAAAAGUAUUAUGUUACGCCGUUCGGAUCUGCAC,-0.974
CACAGACAAAAAGCACCCACACAGACACAGAGGGAAGGGGUUGGGAUGGGGACAGGGUGCACAGCAGGGCGGGGUAGGACCCCAGCCCCU,-0.225
CUGUGCUACACAUCGUAUGUACCGAAUCGGGGUUUUUUUGGUUUUUUUGGGUUUUUUUGGGGAAAGUAUUAUGUUACGCCGUUCGGAUCU,-0.345
UGGGAGGUGGAUUUUGUUUAUUUUUUUAGCUCAUUUCCAGGGGUGGGAAUUUUGUUUUAAUAUGUGUCAUGAAUAAAGUUGUUUUUGAAA,1.36
UGUCCCAGGGAACGCCGGUGCAGAUGUGCUUCUUGUGGGCUCAGAGGCCUUCGUGCUGCUGGACGGGCAGGAGCUGACGCCUCGCUGGAC,-0.582
CUGUGCUACACAUCGUAUGUACCGAAUCGGGAAAAAAAGGGUUUUUUUGGGAAAAAAAGGGAAAGUAUUAUGUUACGCCGUUCGGAUCUG,-0.37
UGGCUUCGAAGUACAGUCUUUGCAGGAUGCAGGAAAUCAGCUUGGUAUGGAGGAUACAUCUCUGAGCUCUGGAAUGCUCACCCAGAACAC,-0.0937
ACCAUGCAGGUGGGCAUCUUUGGCAAGUGGGGCAAGGGGGGGAUAGGGAGGGGGGUAACACUUUGGGAACAGGUGGUCCCAGGUCGUUUC,-0.4
UCCUGUGCUACACAUCGUAUGUACCGAAUCGGUUUUUUUGGAAAAAAAGGUUUUUUUGGAAAGUAUUAUGUUACGCCGUUCGGAUCUGCA,-0.369
UGGGAGGUGGAUUUUGUUUAUUUUUUUAGCUCAUUUCCAGGGGUGGGAAUUUUAUUUUAAUAUGUGUCAUGAAUAAAGUUGUUUUUGAAA,1.81
GUGCUACACAUCGUAUGUACCGAAUCGGGGUUUUUUUGGGGAAAAAAAGGGGAAAAAAAGGGGAAAGUAUUAUGUUACGCCGUUCGGAUC,0.838

# Study 3
# Target: RNA binding protein fox-1 homolog 2, RRM domain, GST-SBP tag (RBFOX2, Homo sapiens, UniProt O43251-10, residues 100-194)
# Method: RNA Bind-n-Seq
# Molecule type: RNA
# Medium: in vitro
# Concentration: 365 nM
# Notes: natural RNA segment, single round, ends assumed
# Baseline: no-protein control
# Direction: higher = stronger binding
# Shared flanks, not repeated: GGGAGUUCUACAGUCCGACGAUC … UGGAAUUCUCGGGUGCCAA
# Residues (chain): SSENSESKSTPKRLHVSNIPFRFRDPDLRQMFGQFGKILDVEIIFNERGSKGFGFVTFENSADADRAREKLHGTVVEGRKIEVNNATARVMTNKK
Sequence,RBNS enrichment (R)
UUGUUUUUUCGGAUGUUUUCUGGUUUUGUUUCCUUGGAAAUAAAUUAAUAUAUUGUUUUCCACCUUCAGGAAUAGUGGAUAUUUAUUUGAUACCUGGUUAAUAUGCACUG,0.566
CGACAUUUAAUGUUGGCAGUGUCAGGCCUCUGACUUGAGACUACUGCUGUCGCAGAUCCUCUCUCUGGCCCUGUUUUGGGGAGGGCCAUUCUUGGUCCUAAGGUUCAUAG,0.252
UGGCAAACUGCUCUGUGCUUUCAAACCAAAGUGUUCCCCCCAACCCCAAAUUUGUCUAAGCACUGGCCAGUCUGUUGUGGGCAUUGUUUUCUACAACCAAAUUCUGGGUU,0.395
AUUACCUAGCAGGAGUCGUGGAAAGGAUGGCGUCUGAUCUGCACGAUGACACCACUGAAUGUUUAGGUGGGCUAGCAUUAGCGACCCUUGUUGGCCACUUUUCAGUCCUG,2.26
UCUUUUUUUUUUCUGCUGAAAUGAAGCUACAUGUCAUGUUUGUGUUCUUUCAUCUGUGGCUCAUCCCUGUAAAACUACGAAUCUGAGCCUCAAAUAAGCAGUAGUUUUUU,0.549
GCCAAUCUGGAGCUUCAUGUUUCCUUCUAAAAGUAGUAACCGGGUAGAAGUGGGUGACCCAUUGAGGACACAUGAUGUGAGGUAUUUCUGCCGGAUUCUAGGUUAGCAAA,0.948
CAGGCUCCCAGUGCAGCCUCCUCUUGCUACGCCAUGCCACCCCCAUUCACAGGGAAACCUCUUUCCUUCCUAUAAAGGAAAGAGGUUGAAUUGACUCACAUUUCCACAUG,0.38
UGCAUUGAUUAAUGUUCACUUAUACAUUCCUGUACAGAAAUUAUGAUUUUUGUGAUUAUAGUAAUAAAAUGAUAUUACUUGUGAAAUAUUAGUAAUAAAUUAUUUGAGUA,0.831
AGAUUUCUGAUUUUAUGUAAAAUUUUGCCUAAUACAUUAAAGCAGUCACUUUUCCUGUGCUGUUUCAUUCACUGUCUCCGUCCCCUUUGUCCCCUAAGCAUCACCUGCCC,0.619
CUACCUGUCAAGGUUUGUGUUACCCUCCUGUAAAUGGUGUACAUAAUGUAUUGUUGGUAAUUAUUUUGGUACUUUUAUGAUGUAUAUUUAUUAAACAGAUUUUUACAAAU,0.767
GUAUUACGUAUAAAUUAAUAUAAAAUGAUUACCUCUGGUGUUGACAGGUUUGAACUUGCACUUCUUAAGGAACAGCCAUAAUCCUCUGAAUGAUGCAUUAAUUACUGACU,0.614
AAUCCAAAAGAAAUGUCAUUAACCAAUACUCCAAGUCCUUGAGUUUUGUUAUAUCUGAACUAGUUGAACUGUGACUGACAGGUAAUCCUAAUAUAUCCAAAUCCAACUGA,0.363

# Study 4
# Target: Sal-like protein 4, full length isoform B (SALL4, Homo sapiens, UniProt Q9UJQ4-2, residues 1-616)
# Method: universal PBM
# Molecule type: double-stranded DNA, one strand shown
# Medium: in vitro
# Concentration: not given
# Notes: 8-mer, flanks averaged, mean of replicates
# Direction: higher = stronger binding
# Target sequence (chain): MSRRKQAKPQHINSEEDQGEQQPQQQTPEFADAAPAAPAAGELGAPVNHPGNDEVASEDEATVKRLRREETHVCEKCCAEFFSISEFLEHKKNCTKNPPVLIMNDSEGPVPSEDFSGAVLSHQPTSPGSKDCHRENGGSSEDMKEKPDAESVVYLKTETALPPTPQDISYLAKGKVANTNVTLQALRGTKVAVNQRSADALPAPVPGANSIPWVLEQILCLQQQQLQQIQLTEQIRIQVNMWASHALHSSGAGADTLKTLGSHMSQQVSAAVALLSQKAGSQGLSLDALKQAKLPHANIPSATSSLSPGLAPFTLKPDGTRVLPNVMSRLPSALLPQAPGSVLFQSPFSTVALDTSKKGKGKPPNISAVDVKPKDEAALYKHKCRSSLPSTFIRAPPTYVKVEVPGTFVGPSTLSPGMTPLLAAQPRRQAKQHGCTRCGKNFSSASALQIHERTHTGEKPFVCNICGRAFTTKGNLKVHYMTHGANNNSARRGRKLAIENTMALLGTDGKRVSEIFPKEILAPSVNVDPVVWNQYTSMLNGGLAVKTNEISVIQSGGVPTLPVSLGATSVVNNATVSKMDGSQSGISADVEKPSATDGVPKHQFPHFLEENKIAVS
Sequence,E-score
ACAGCGAT,-0.169
AGTGTATG,0.123
AGGTCAGC,-0.0822
AGTCCTGA,-0.126
GAGCGAAC,-0.172
ATTGAAGC,0.215
GAGTTAAA,-0.0478
AAAGCGCT,0.184
ATTCGCAC,-0.149
CCTCATGA,-0.00974
AGCCAGTG,-0.27
AAGGTAGA,0.172
CACCAGAA,-0.0009
TGCAACCA,-0.185
CAAATCCA,0.177
AGAGGGTG,-0.0729
AGCCGTTA,0.0449
GGCCATAC,-0.143
AGTGGGCC,-0.323
CCATCAAC,0.13
CGGCTAGA,-0.199

# Study 5
# Target: Histone acetyltransferase KAT6A, both winged helices, GST fusion (KAT6A, Homo sapiens, UniProt Q92794, residues 1-181)
# Method: protein binding microarray
# Molecule type: double-stranded DNA, one strand shown
# Medium: in vitro
# Concentration: not given
# Notes: 8-mer, flanks averaged, mean of 2 arrays, mostly near background
# Baseline: not given
# Direction: higher = stronger binding
# Residues (chain): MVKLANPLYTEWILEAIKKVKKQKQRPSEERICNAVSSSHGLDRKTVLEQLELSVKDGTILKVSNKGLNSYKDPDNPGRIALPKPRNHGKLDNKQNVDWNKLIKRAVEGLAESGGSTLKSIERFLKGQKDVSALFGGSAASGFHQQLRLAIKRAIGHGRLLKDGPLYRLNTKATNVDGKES
Sequence,E-score
AGGGCTGG,-0.198
ACCAAACT,-0.167
GGCGTCAC,0.154
GTTATATA,-0.0662
CCTATCCG,0.0743
GCTTATGA,-0.00741
AAGAATCG,0.169
CTTTCTAC,-0.101
ACTCTAAC,-0.148
ATCATGTA,-0.0828
AGAGTCAA,-0.0566
ACACGTCG,0.11
AATGCCGG,0.268
CTACGTTC,-0.0371
GCTTTACC,0.0988
AGACAATA,-0.0225
GAGCGGCC,0.326
GGGCCCCA,-0.0449
AGGGAGCA,-0.168
TCGATACA,-0.0955
AGCTCCCA,-0.197
ATACTGGG,-0.157
ACACCTAT,-0.0546
ACTATTAT,-0.0778
AGATTAGG,-0.119

# Study 6
# Target: Myc proto-oncogene protein, bHLH-zipper, MAX partner unstated (MYC, Homo sapiens, UniProt P01106, residues 368-449)
# Chain of UniProt P01106 (368-449, looked up): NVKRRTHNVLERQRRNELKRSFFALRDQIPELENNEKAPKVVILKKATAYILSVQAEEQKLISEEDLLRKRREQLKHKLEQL
# Method: protein-binding microarray
# Molecule type: double-stranded DNA, one strand shown
# Medium: in vitro
# Concentration: not given
# Notes: k-mer, scored over probes, only values ≥0.25
# Direction: higher = stronger binding
Sequence,E-score
CCACACGC,0.397
ACCCCGCC,0.384
ACATGTCG,0.297
GCATGCAA,0.338
CGCCTCTC,0.25
CGTGGCAA,0.341
CATCGTGC,0.38
CGTGTACA,0.279
CCACGACA,0.28
CCACCCCG,0.327
CTCATGCC,0.315
CGTGCGGC,0.397

# Repeated from above (study 5):
Sequence,E-score
ACACGTCG,0.11
AATGCCGG,0.268
CTACGTTC,-0.0371
GCTTTACC,0.0988
AGACAATA,-0.0225
GAGCGGCC,0.326
